Results from different studies.
Compare with care: the assays were run in different laboratories. ± marks the error that the study gave.
NPY1R: Neuropeptide Y receptor type 1 (NPY1R, Homo sapiens, UniProt P25929)
Mannan-binding lectin serine protease 2: Mannan-binding lectin serine protease 2 (Homo sapiens, UniProt O00187)
ampC: Beta-lactamase (ampC, Escherichia coli K-12, UniProt P00811)
Sigmar1: Sigma non-opioid intracellular receptor 1 (Sigmar1, Rattus norvegicus, UniProt Q9R0C9)
Oprk1: Kappa-type opioid receptor (Oprk1, Rattus norvegicus, UniProt P34975)
Cnr1: Cannabinoid receptor 1 (Cnr1, Mus musculus, UniProt P47746)
MC1R: Melanocyte-stimulating hormone receptor (MC1R, Homo sapiens, UniProt Q01726)

SMILES	target	assay	test system	conditions	Ki
CC(=O)N[C@@H](CCCNC(=N)N)C(=O)N[C@@H](Cc1ccc(O)cc1)C(=O)N[C@H]1CCCNC(=N)NC(=O)NCCCCNC(=O)[C@H](Cc2ccc(O)cc2)NC(=O)[C@H](CCCNC(=N)N)NC(=O)[C@H](CC(C)C)NC1=O	NPY1R	ligand displacement, radioligand	–	–	> 5 µM
O=C(/C=C/c1ccc(F)cc1)c1ccc(N2CCNCC2)cc1	Amine oxidase [flavin-containing] B (MAOB, Homo sapiens, UniProt P27338)	enzyme activity, inhibitor	–	–	0.63 µM
CC[C@H](C)[C@H](NC(=O)[C@@H]1CSCC(=O)NCCC[C@H](NC(=O)[C@H](Cc2ccc(O)cc2)NC(=O)CNC(C)=O)C(=O)N[C@@H](CO)C(=O)N[C@@H](CCCNC(=N)N)C(=O)N[C@@H](CO)C(=O)N[C@@H](Cc2ccc(O)cc2)C(=O)N2CCC[C@H]2C(=O)N2CCC[C@H]2C(=O)N[C@@H](C(C)C)C(=O)N1)C(=O)N1CCC[C@H]1C(=O)N[C@@H](CC(=O)O)C(N)=O	Mannan-binding lectin serine protease 2	–	–	with: 250 µM Z-L-Lys-SBzl substrate	84 ± 19 µM
Cc1onc(-c2ccccc2Cl)c1C(=O)NCC(=O)O	ampC	–	–	–	< 10000 µM
CC[C@H](C)[C@H](NC(=O)[C@H](Cc1ccn2nccc2c1)NC(=O)[C@@H]1CCCN1C(=O)[C@H](CCCNC(=N)N)NC(=O)[C@@H](N)CCCNC(=N)N)C(=O)N[C@@H](CC(C)C)C(=O)O	Neurotensin receptor type 2 (NTSR2, Homo sapiens, UniProt O95665)	ligand displacement, radioligand	–	cell membranes	0.0048 µM
CC1(C)SC(C(CCc2ccccc2)B(O)O)N[C@H]1C(=O)O (stereo partly shown)	ampC	enzyme activity, inhibitor	–	pH 7.50, 25 °C, with: cephalothin 0.2 mM substrate	0.38 ± 0.12 µM
CC[C@H](C)[C@H](NC(=O)[C@@H]1CSCC(=O)NCC[C@H](NC(=O)[C@H](Cc2ccc(O)cc2)NC(=O)CNC(C)=O)C(=O)N[C@@H](CO)C(=O)N[C@@H](CCCNC(=N)N)C(=O)N[C@@H](CO)C(=O)N[C@@H](Cc2ccc(O)cc2)C(=O)N2CCC[C@H]2C(=O)N2CCC[C@H]2C(=O)N[C@@H](C(C)C)C(=O)N1)C(=O)N1CCC[C@H]1C(=O)N[C@@H](CC(=O)O)C(N)=O	Mannan-binding lectin serine protease 2	–	–	with: 250 µM Z-L-Lys-SBzl substrate	57 ± 2 µM
CNC(=O)C1CCN(c2ccccc2NC(=O)c2ccc(-c3cc(O)ccc3C)c(C)n2)CC1	Ephrin type-B receptor 3 (EPHB3, Homo sapiens, UniProt P54753)	cell-free assay, TR-FRET	–	–	0.0049 µM
CCCc1ccc2c(c1)sc(=O)n2CCCCCCN1CCCCCC1	Sigmar1	binding, radioligand binding	rat liver membranes	with: [3H](+)-pentazocine 5 nM	0.0063 ± 0.0009 µM
CC(C)C[C@H](NC(=O)[C@H](CCCNC(=N)N)NC(=O)[C@H](Cc1c[nH]c2ccccc12)NC(=O)[C@H](Cc1ccccc1)NC(=O)[C@H](Cc1ccccc1)N(C)C(=O)CN)C(=O)N[C@@H](CCCNC(=N)N)C(=O)N[C@@H](CCCNC(=N)N)C(=O)N[C@H](C)C(=O)N[C@@H](CCCNC(=N)N)C(=O)N1CCC[C@H]1C(=O)N[C@@H](CCCCN)C(N)=O	Oprk1	ligand displacement, radioligand	–	–	0.0154 µM
CC(=O)N[C@@H](CCCNC(=N)N)C(=O)N[C@@H](Cc1ccc(O)cc1)C(=O)N[C@@H](CCCNC(=N)N)C(=O)N[C@@H](CC(C)C)C(=O)N[C@@H](CCCNC(=N)NC(=O)NCCCCN)C(=O)N[C@@H](Cc1ccc(O)cc1)C(N)=O	Neuropeptide Y receptor type 5 (NPY5R, Homo sapiens, UniProt Q15761)	ligand displacement, radioligand	–	–	> 5 µM
COC(=O)C1=C(C)NC(C)=C(C(=O)OC)C1c1cccc(NC(=O)NCCCN2CCC(c3cccc(OC)c3)CC2)c1	NPY1R	ligand displacement, radioligand	–	cell membranes	0.022 µM
CC(=O)N[C@@H](Cc1ccccc1)C(=O)N[C@@H](Cc1ccccc1)C(=O)N[C@@H](Cc1c[nH]c2ccccc12)C(=O)N[C@@H](CCCNC(=N)N)C(=O)N[C@@H](CC(C)C)C(=O)N[C@@H](CCCNC(=N)N)C(=O)N[C@@H](CCCNC(=N)N)C(=O)N[C@H](C)C(=O)N[C@@H](CCCNC(=N)N)C(=O)N1CCC[C@H]1C(=O)N[C@@H](CCCCN)C(N)=O	Oprk1	ligand displacement, radioligand	–	–	0.0161 µM
CCC(=O)c1ccc2c(c1)sc(=O)n2CCCCN1CCCCCC1	Sigmar1	binding, radioligand binding	rat liver membranes	with: [3H](+)-pentazocine 5 nM	0.0103 ± 0.0009 µM
Cc1cc2c(cc1Cl)Cc1c(C(=O)NC3CC4CC(C3C)C4(C)C)nn(-c3ccc(Cl)cc3Cl)c1-2 (stereo not shown)	Cnr1	binding, radioligand displacement	mouse brain homogenate without cerebellum	with: [3H]CP-55,940	> 5 µM
CC[C@H](C)[C@H](NC(=O)CN)C(=O)N[C@H](C(=O)N[C@@H](CC(N)=O)C(=O)N[C@H](C(=O)N[C@@H](CC(C)C)C(=O)N[C@@H](CCC(N)=O)C(=O)N[C@@H](CCCCN)C(=O)N[C@@H](Cc1ccc(O)cc1)C(=O)N[C@@H](Cc1ccc(O)cc1)C(=O)N[C@H]1CSSC[C@@H]2NC(=O)[C@H](CCCCN)NC(=O)[C@H](C)NC(=O)CNC(=O)[C@H](C)NC(=O)[C@H]([C@@H](C)O)NC(=O)[C@H](CO)NC(=O)[C@@H]3CSSC[C@H](NC(=O)[C@H](CCCNC(=N)N)NC(=O)CNC(=O)CNC(=O)[C@H](CCCNC(=N)N)NC(=O)[C@H](C(C)C)NC(=O)[C@H](CCCNC(=N)N)NC1=O)C(=O)N[C@@H](C)C(=O)N[C@@H](C(C)C)C(=O)N[C@@H](CC(C)C)C(=O)N[C@@H](CO)C(=O)N[C@@H](CSSC[C@@H](C(=O)N[C@@H](CCCNC(=N)N)C(=O)N[C@@H](CCCNC(=N)N)C(=O)N[C@@H](CCCCN)C(=O)N[C@@H](CCCCN)C(N)=O)NC2=O)C(=O)N[C@@H](CC(C)C)C(=O)N1CCC[C@H]1C(=O)N[C@@H](CCCCN)C(=O)N[C@@H](CCC(=O)O)C(=O)N[C@@H](CCC(=O)O)C(=O)N[C@@H](CCC(N)=O)C(=O)N[C@@H]([C@@H](C)CC)C(=O)NCC(=O)N[C@@H](CCCCN)C(=O)N3)[C@@H](C)O)[C@@H](C)CC	MC1R	ligand displacement in cells	–	–	0.048 µM
COC1CC(=O)N(C)C=CCCCC(=O)N(C)C(C(C)C)C(=O)N(C)C(CC(C)C)C(=O)OC(C(C)C)CC(C)C1 (stereo not shown)	Substance-K receptor (TACR2, Homo sapiens, UniProt P21452)	ligand displacement, radioligand	–	–	1.2 µM
CC(=O)N[C@H](CCCNC(=N)N)C(=O)N[C@@H](Cc1ccc(O)cc1)C(=O)N[C@@H](CCCNC(=N)NC(=O)NCCCCN)C(=O)N[C@@H](CC(C)C)C(=O)N[C@@H](CCCNC(=N)N)C(=O)N[C@@H](Cc1ccc(O)cc1)C(N)=O	NPY1R	ligand displacement, radioligand	–	–	> 5 µM
CC1(CCN2CCc3ccccc3C2)Cc2cc(Cl)ccc2C1=O (single isomer, unassigned)	5-hydroxytryptamine receptor 7 (HTR7, Homo sapiens, UniProt P34969)	binding, radioligand binding	–	with: [3H]LSD	0.093 µM
CCCCCCCCCCCCCCCc1ccc(C(O)P(=O)(O)O)cc1 (racemic)	Autotaxin (ENPP2, Homo sapiens, UniProt Q13822)	–	–	free enzyme	0.45 µM
CCCN(CCC)CC1CCCCN1CCNC(=O)N1c2ccccc2C(=O)Nc2cccnc21 (stereo not shown)	Muscarinic acetylcholine receptor M3 (CHRM3, Homo sapiens, UniProt P20309)	cell-free assay, radioligand	–	–	0.155 µM
C[C@]1(COC(=O)Cc2ccc(O)c(O)c2)[C@H](C(=O)O)N2C(=O)/C(=C/c3ccccn3)[C@H]2S1(=O)=O	Beta-lactamase OXA-48 (OXA-48, Klebsiella pneumoniae, UniProt Q6XEC0)	inhibitor	–	with: nitrocefin	0.17 ± 0.01 µM
CC[C@H](C)[C@H](NC(=O)CN)C(=O)N[C@H](C(=O)N[C@@H](CC(N)=O)C(=O)N[C@H](C(=O)N[C@@H](CC(C)C)C(=O)N[C@@H](CCC(N)=O)C(=O)N[C@@H](CCCCN)C(=O)N[C@@H](Cc1ccc(O)cc1)C(=O)N[C@@H](Cc1ccc(O)cc1)C(=O)N[C@H]1CSSC[C@@H]2NC(=O)[C@H](CCCCN)NC(=O)[C@H](CCCNC(=N)N)NC(=O)CNC(=O)[C@H](C)NC(=O)[C@H]([C@@H](C)O)NC(=O)[C@H](CO)NC(=O)[C@@H]3CSSC[C@H](NC(=O)[C@H](CCCNC(=N)N)NC(=O)CNC(=O)CNC(=O)[C@H](CCCNC(=N)N)NC(=O)[C@H](C(C)C)NC(=O)[C@H](CCCNC(=N)N)NC1=O)C(=O)N[C@@H](C)C(=O)N[C@@H](C(C)C)C(=O)N[C@@H](CC(C)C)C(=O)N[C@@H](CO)C(=O)N[C@@H](CSSC[C@@H](C(=O)N[C@@H](CCCNC(=N)N)C(=O)N[C@@H](CCCNC(=N)N)C(=O)N[C@@H](CCCCN)C(=O)N[C@@H](CCCCN)C(N)=O)NC2=O)C(=O)N[C@@H](CC(C)C)C(=O)N1CCC[C@H]1C(=O)N[C@@H](CCCCN)C(=O)N[C@@H](CCC(=O)O)C(=O)N[C@@H](CCC(=O)O)C(=O)N[C@@H](CCC(N)=O)C(=O)N[C@@H]([C@@H](C)CC)C(=O)NCC(=O)N[C@@H](CCCCN)C(=O)N3)[C@@H](C)O)[C@@H](C)CC	MC1R	ligand displacement in cells	–	–	0.081 µM
CCCc1ccc2c(c1)sc(=O)n2CCCCCN1CCCCCC1	Sigmar1	binding, radioligand binding	rat liver membranes	with: [3H](+)-pentazocine 5 nM	0.0046 ± 0.0004 µM
CCOC(=O)[C@](CC)(CCCSCCOCCOCCNc1ccc([N+](=O)[O-])c2nonc12)NC(=O)c1ccc(C2CC2)c(Cc2ccc(F)cc2)n1	Cnr1	ligand displacement, radioligand	–	cell membranes	0.691 µM

A few entries again:
SMILES	target	assay	test system	conditions	Ki
CCCCCCCCCCCCCCCc1ccc(C(O)P(=O)(O)O)cc1 (racemic)	Autotaxin (ENPP2, Homo sapiens, UniProt Q13822)	–	–	free enzyme	0.45 µM
Cc1onc(-c2ccccc2Cl)c1C(=O)NCC(=O)O	ampC	–	–	–	< 10000 µM
